Assay results gathered from unrelated publications.
Compare with care: the assays were run in different laboratories.
Dose: dose not given

| Structure (SMILES) | assay | test system | setting | scale | endpoint | result |
| --- | --- | --- | --- | --- | --- | --- |
| COCCOc1cnc2ccn([C@H](C)c3nnc4c(F)cc(-c5cnn(C)c5)cn34)c(=O)c2c1 | – | MET-amplified advanced solid tumours | – | – | median duration of response | 197 days |
| Cc1cccc(-c2[nH]c(CNc3ccccc3F)nc2-c2ccc3ncnn3c2)n1 | – | relapsed refractory multiple myeloma patients | oral, together with: pomalidomide | – | median time to first response | 1 to 2 months |
| CN[C@@H](C)C(=O)N[C@H]1CN(S(=O)(=O)c2cccc(S(=O)(=O)N3CC[C@H]4CC[C@@H](C(=O)NC(c5ccccc5)c5ccccc5)N4C(=O)[C@@H](NC(=O)[C@H](C)NC)C3)c2)CC[C@H]2CC[C@@H](C(=O)NC(c3ccccc3)c3ccccc3)N2C1=O | RECIST 1.1 | advanced pancreatic cancer patients | prior therapy, together with: AG | – | median progression-free survival | 2.76 months |
| CCN1CCN(Cc2ccc(Nc3ncc(F)c(-c4cc(F)c5nc6n(c5c4)[C@H](C)CCC6)n3)nc2)CC1 | Phase Ia, RECIST v1.1 | patients with advanced solid tumours | monotherapy, all doses | – | median progression-free survival | 6.5 months |
| COc1ncnn2ccc(-c3cnc4nc(C)n(Cc5nnc([C@@H](C)F)o5)c4c3)c12 | – | Homo sapiens, relapsed or refractory AML or MDS | responding patients | – | median remission time | 56 days |
| N#CC[C@H](C1CCCC1)n1cc(-c2ncnc3[nH]ccc23)cn1 | phosphoflow cytometry, refers to: pS6 | patients, patient plasma | – | relative to: baseline | median peak inhibition | 62.3% |
| Cc1cc(C)c(CNC(=O)c2cc(Cl)c3c(c2C)O[C@@](C)([C@H]2CC[C@H](N(C)C)CC2)O3)c(=O)[nH]1 | – | relapsed/refractory B-NHL patients | IWG 2007 criteria | – | median duration of response | > 18 months |
| Nc1nc2cc(-c3ccc4ncc(C(=O)N5CCOCC5)n4c3)ccc2o1 | RECIST v1.1 | advanced solid tumour patients | Mon-Wed-Fri dosing | – | median clinical benefit duration | 4.8 months |
| CC(C)n1c(C2CCNCC2)nc2c([N+](=O)[O-])c(Br)c(Br)cc21 | refers to: blasts | AML patients IDH mutated, bone marrow | all doses | – | median change from baseline | -43% |
| Cc1cc(Nc2ncc(Cl)c(Nc3ccccc3S(=O)(=O)C(C)C)n2)c(OC(C)C)cc1C1CCNCC1 | – | patients with advanced solid tumours | together with: gemcitabine | – | median progression-free survival | 3.4 months |
| CN(C)C(=O)c1cc2cnc(Nc3ccc(N4CCNCC4)cn3)nc2n1C1CCCC1 | – | HR+/HER2− advanced breast cancer patients | de novo disease | – | median PFS2 | 52.4 months |

Some of these lines once more:
| Structure (SMILES) | assay | test system | setting | scale | endpoint | result |
| --- | --- | --- | --- | --- | --- | --- |
| N#CC[C@H](C1CCCC1)n1cc(-c2ncnc3[nH]ccc23)cn1 | phosphoflow cytometry, refers to: pS6 | patients, patient plasma | – | relative to: baseline | median peak inhibition | 62.3% |
